{"data": "Assay results from different studies", "note": "± gives the spread as reported."}
{"Structure (SMILES)": "[11CH3]Sc1ccc(C(=O)C2CCN(C3Cc4ccccc4CC3O)CC2)cc1 (single isomer, unassigned; (-))", "assay": "PET imaging", "test system": "cynomolgus monkey, striatum", "measurement": "time to maximum uptake", "value": "~9 min"}
{"Structure (SMILES)": "CSCC[C@@H]1NC(=O)[C@@H]2CSSC[C@H](NC(=O)[C@H](CO)NC(=O)[C@H](C)N)C(=O)N[C@@H](CCCNC(=N)N)C(=O)N[C@@H]([C@@H](C)O)C(=O)N3CCC[C@H]3C(=O)N[C@@H](CCCCN)C(=O)N[C@@H](CC(=O)O)C(=O)N[C@H]3CSSC[C@H](NC(=O)[C@H](CCCCN)NC(=O)[C@H](CCCNC(=N)N)NC(=O)[C@H](CC(N)=O)NC1=O)C(=O)N[C@@H](CCCCN)C(=O)N[C@H]1CSSC[C@H](NC(=O)[C@@H]4CCCN4C(=O)[C@H](CC(=O)O)NC(=O)[C@H](C)NC3=O)C(=O)N[C@@H](C)C(=O)N[C@@H](CCCCN)C(=O)N[C@@H](CCC(=O)O)C(=O)N[C@@H]([C@@H](C)O)C(=O)NCC(=O)N[C@@H](CSSC[C@@H](C(N)=O)NC(=O)[C@H](CCCNC(=N)N)NC(=O)[C@H](CC(N)=O)NC1=O)C(=O)N1CCC[C@H]1C(=O)N[C@@H](Cc1ccc(O)cc1)C(=O)NCC(=O)N[C@@H](CCCCN)C(=O)N2", "test system": "DA rat, pristane-induced arthritis, serum", "conditions": "subcutaneous, 0.1 mg/kg every other day, 21 days", "measurement": "VLDL", "value": "9 mg/dL"}
{"Structure (SMILES)": "C/C=C/C=C/C/C=C/CCCCCCCc1cccc(O)c1O", "test system": "female Kunming mice tumour-bearing, lungs", "conditions": "intravenous, 10 mg/kg, 4 h", "measurement": "tissue concentration", "value": "7690 ± 1050 ng/g"}
{"Structure (SMILES)": "CC[C@H](C)CCCCC(=O)N[C@@H](CCN)C(=O)N[C@H](C(=O)N[C@@H](CCN)C(=O)N[C@H]1CCNC(=O)[C@H]([C@@H](C)O)NC(=O)[C@H](CCN)NC(=O)[C@H](CCN)NC(=O)[C@H](CC(C)C)NC(=O)[C@@H](Cc2ccccc2)NC(=O)[C@H](CCN)NC1=O)[C@@H](C)O", "assay": "LC-MS/MS", "test system": "male CD-1 mouse, kidney homogenate", "conditions": "subcutaneous, 17.2 mg/kg single dose, 4 h", "measurement": "kidney concentration", "value": "126000 ng/g"}
{"Structure (SMILES)": "CC(C)C[C@H](NC(=O)[C@H](CCCCN)NC(=O)[C@H](CCC(=O)O)NC(=O)[C@H](C)NC(=O)[C@@H](NC(=O)[C@H](CCCCN)NC(=O)[C@H](CC(=O)O)NC(=O)[C@H](Cc1ccc(O)cc1)NC(=O)[C@H](Cc1ccccc1)NC(=O)[C@H](C)NC(=O)[C@H](CCCCN)NC(=O)[C@H](CC(C)C)NC(=O)[C@H](Cc1c[nH]c2ccccc12)NC(=O)[C@@H](N)CC(=O)O)C(C)C)C(=O)N[C@@H](CCCCN)C(=O)N[C@@H](CCC(=O)O)C(=O)N[C@@H](C)C(=O)N[C@@H](Cc1ccccc1)C(=O)N1CCC[C@H]1C(=O)N[C@@H](CC(=O)O)C(=O)N[C@@H](Cc1c[nH]c2ccccc12)C(=O)N[C@@H](C)C(=O)N[C@@H](CCCCN)C(=O)N[C@@H](C)C(=O)N[C@@H](C)C(=O)N[C@@H](Cc1ccc(O)cc1)C(=O)N[C@@H](CC(=O)O)C(=O)N[C@@H](CCCCN)C(=O)N[C@@H](C)C(=O)N[C@@H](C)C(=O)N[C@@H](CCC(=O)O)C(=O)N[C@@H](CCCCN)C(=O)N[C@@H](C)C(=O)N[C@@H](CCCCN)C(=O)N[C@@H](CCC(=O)O)C(=O)N[C@@H](C)C(=O)N[C@@H](C)C(=O)O", "test system": "cynomolgus monkey female, plasma", "conditions": "intravenous infusion, 75 mg/kg, day 1, 30 min infusion", "measurement": "AUC(0-inf)", "value": "11400 µg·h/mL"}
{"Structure (SMILES)": "COC(=O)C[C@](O)(CCCC(C)(C)OC(C)=O)C(=O)O[C@@H]1C(OC)=C[C@]23CCCN2CCc2cc4c(cc2[C@H]13)OCO4", "test system": "CD1 mouse, stomach", "conditions": "oral, 1 mg/kg, 2 h", "measurement": "tissue concentration", "value": "582 ng/mL"}
{"Structure (SMILES)": "CN[C@](C)(C[18F])C(=O)O", "test system": "SCID mouse U87 xenograft, spleen", "conditions": "30 min, post injection", "measurement": "tissue uptake", "value": "12 ± 3.8 %ID/g"}
{"Structure (SMILES)": "CCN1CCCC1CNC(=O)c1cc(Br)cc(OC)c1O[11CH3] (centres unmarked)", "test system": "rhesus monkey, arterial plasma", "conditions": "dose not given, 80 min", "how to read": "baseline: [18F]fallypride, lower than reference", "measurement": "plasma concentration difference", "value": "85%"}
{"Structure (SMILES)": "c1ccc(C2(CCNC3CCC4(SCCS4)c4ccccc43)CCOC3(CCCC3)C2)nc1 (centres unmarked)", "test system": "mice", "conditions": "subcutaneous, 0.1 mg/kg", "measurement": "AUC(0-24h)", "value": "0.0189 µg·h/mL"}
{"Structure (SMILES)": "COC[C@@H](NC(C)=O)C(=O)NCc1ccc(-c2ccc(Cl)cc2)cc1", "assay": "MES seizure", "test system": "Sprague-Dawley rat male", "conditions": "oral", "how to read": "baseline: TD50 over ED50", "measurement": "protective index", "value": "~78"}
{"Structure (SMILES)": "CC[C@H](C)[C@H](NC(=O)[C@H](CC(=O)O)NC(=O)[C@H](CO)NC(=O)[C@H](CCC(N)=O)NC(=O)[C@H](C)NC(=O)[C@H](CC(=O)O)NC(=O)[C@H](CCC(=O)O)NC(=O)[C@H](Cc1c[nH]cn1)NC(=O)[C@H](Cc1ccc(O)cc1)NC(=O)[C@H](C)NC(=O)[C@H](CC(=O)O)NC(=O)[C@H](CCC(=O)O)NC(=O)[C@H](Cc1c[nH]cn1)NC(=O)[C@H](Cc1ccc(O)cc1)NC(=O)[C@H](C)NC(=O)[C@H](CC(=O)O)NC(=O)[C@H](CCC(=O)O)NC(=O)[C@H](Cc1c[nH]cn1)NC(=O)[C@H](Cc1ccc(O)cc1)NC(=O)[C@H](C)NC(=O)[C@H](CC(=O)O)NC(=O)[C@H](CCC(=O)O)NC(=O)[C@H](Cc1c[nH]cn1)NC(=O)[C@H](Cc1ccc(O)cc1)NC(=O)[C@H](C)NC(=O)[C@H](CC(=O)O)NC(=O)[C@H](CCC(=O)O)NC(=O)[C@H](Cc1c[nH]cn1)NC(=O)[C@@H](N)Cc1ccc(O)cc1)C(=O)N[C@H](C(=O)N[C@@H](C)C(=O)N[C@@H](Cc1c[nH]cn1)C(=O)N[C@@H](CC(C)C)C(=O)N[C@@H](CC(C)C)C(=O)O)C(C)C", "test system": "normal mouse, blood", "conditions": "dose not given", "measurement": "EO share of white cells", "value": "2.7 ± 0.4%"}
{"note": "Excerpt of the above:"}
{"Structure (SMILES)": "CSCC[C@@H]1NC(=O)[C@@H]2CSSC[C@H](NC(=O)[C@H](CO)NC(=O)[C@H](C)N)C(=O)N[C@@H](CCCNC(=N)N)C(=O)N[C@@H]([C@@H](C)O)C(=O)N3CCC[C@H]3C(=O)N[C@@H](CCCCN)C(=O)N[C@@H](CC(=O)O)C(=O)N[C@H]3CSSC[C@H](NC(=O)[C@H](CCCCN)NC(=O)[C@H](CCCNC(=N)N)NC(=O)[C@H](CC(N)=O)NC1=O)C(=O)N[C@@H](CCCCN)C(=O)N[C@H]1CSSC[C@H](NC(=O)[C@@H]4CCCN4C(=O)[C@H](CC(=O)O)NC(=O)[C@H](C)NC3=O)C(=O)N[C@@H](C)C(=O)N[C@@H](CCCCN)C(=O)N[C@@H](CCC(=O)O)C(=O)N[C@@H]([C@@H](C)O)C(=O)NCC(=O)N[C@@H](CSSC[C@@H](C(N)=O)NC(=O)[C@H](CCCNC(=N)N)NC(=O)[C@H](CC(N)=O)NC1=O)C(=O)N1CCC[C@H]1C(=O)N[C@@H](Cc1ccc(O)cc1)C(=O)NCC(=O)N[C@@H](CCCCN)C(=O)N2", "test system": "DA rat, pristane-induced arthritis, serum", "conditions": "subcutaneous, 0.1 mg/kg every other day, 21 days", "measurement": "VLDL", "value": "9 mg/dL"}
{"Structure (SMILES)": "c1ccc(C2(CCNC3CCC4(SCCS4)c4ccccc43)CCOC3(CCCC3)C2)nc1 (centres unmarked)", "test system": "mice", "conditions": "subcutaneous, 0.1 mg/kg", "measurement": "AUC(0-24h)", "value": "0.0189 µg·h/mL"}
